Experimental data gathered from unrelated publications.
Numbered parts are unrelated; each lists some results of a single study.

Study 1 — technique: protein binding microarray; molecule type: double-stranded DNA, one strand shown; matrix: in vitro; concentration: not given; reference: not given; direction: higher = stronger binding
Target: Histone acetyltransferase KAT6A, winged helix 1, GST fusion (KAT6A, Homo sapiens, UniProt Q92794, residues 1-85)
Setting: 8-mer, flanks averaged, mean of 2 arrays, mostly near background
Target sequence (chain): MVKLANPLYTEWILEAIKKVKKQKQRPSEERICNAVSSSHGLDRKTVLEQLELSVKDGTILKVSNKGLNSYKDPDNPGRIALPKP
`ATGTACAC` gave an E-score of -0.125.
The E-score of `GAGGAGAC` is reported as 0.12.
With `ACGACGCC` the E-score was 0.321.
`AACACATG` has an E-score of -0.138.
The E-score of `ACTAGCAG` is reported as -0.191.
With `AGTACCAG` the E-score was -0.24.
`ACCCGGCT` gave an E-score of 0.202.
`AGCTAGAT` has an E-score of -0.296.
`AAGGGGGT` has an E-score of -0.0856.
`ACAGTCAT` gave an E-score of -0.155.
For `TACCAACA`, the E-score was -0.17.
`GTTTAACA` has an E-score of -0.238.
The E-score of `AGATCCCG` is reported as 0.218.
The E-score of `CTAGGCGC` is reported as 0.304.
With `CTACACTA` the E-score was -0.205.
With `ATTCCCCC` the E-score was 0.0473.
`GACTCCCA` has an E-score of -0.187.
`CTCTCTAC` gave an E-score of -0.108.

Study 2 — technique: competition protein-binding microarray; molecule type: double-stranded DNA, one strand shown; matrix: in vitro; concentration: 2 µM; added: Cbf1 competitor, 0.05 µM; direction: higher = stronger binding; constant ends, left off below: … GTCTTGATTCGCTTGACGCTGCTG
Target: Phosphate system positive regulatory protein PHO4, full length, GST-tagged (PHO4, Saccharomyces cerevisiae, UniProt P07270, residues 1-312)
Setting: whole 60-bp probe, lowest competitor level
Target sequence (chain): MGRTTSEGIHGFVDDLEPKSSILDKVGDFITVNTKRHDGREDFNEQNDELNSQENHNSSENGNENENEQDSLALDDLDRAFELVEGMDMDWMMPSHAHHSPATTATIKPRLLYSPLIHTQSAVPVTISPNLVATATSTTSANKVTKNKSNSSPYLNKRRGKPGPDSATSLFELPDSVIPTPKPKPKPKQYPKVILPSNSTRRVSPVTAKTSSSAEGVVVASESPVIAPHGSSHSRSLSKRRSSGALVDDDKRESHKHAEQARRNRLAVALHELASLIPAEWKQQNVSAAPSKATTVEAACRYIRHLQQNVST
The fluorescence intensity of `TTCCAGAAATTGGTGTTTGTGATGCTTGATGCTCTC` is reported as 3780 a.u.
The fluorescence intensity of `CGTCCTAGTGATTGCTATGTGGGTGCCATGAGGAAG` is reported as 7550 a.u.
For `ATTCCTACTTTCCGTCACGTGGGACGCCCGTTTAGG`, the fluorescence intensity was 14300 a.u.
For `GTAAATGAGGCCCATCACGCTGACTCACTCGGTCCG`, the fluorescence intensity was 4810 a.u.
The fluorescence intensity of `CCCTCCCTTCTCTGCTCCGTGATGGCCATTTCAACC` is reported as 4800 a.u.
For `CTAACGAAGGTTTGTCACGAAACTTACAAGCCAAGT`, the fluorescence intensity was 3180 a.u.
`CGATCTTGATGTTGTCCCGTGCCAGGTTGTATAATA` has a fluorescence intensity of 9180 a.u.
`CGTCCTAGCGATTGAAATGTGGGTGCCATGAGGAAG` has a fluorescence intensity of 7650 a.u.
For `GGTCTCCTCGGTGAGAACGTGATGGGATAGCCGTTA`, the fluorescence intensity was 11800 a.u.
With `CAATGTTTTTAAAAGCACGTGACTCGAATGTTACCC` the fluorescence intensity was 17800 a.u.
`CGGGGTTAAGTTTGTTCTGTGGGTGGCTTGCAGCAG` gave a fluorescence intensity of 3940 a.u.
`CATACCCAACCTTGTCACTGGACTTAAGATATTTGT` has a fluorescence intensity of 3200 a.u.
`CTAACGAAGGTTTTTCACGTGACGTACAAGCCAAGT` has a fluorescence intensity of 11100 a.u.
The fluorescence intensity of `ATAACCGAAATGGGACACGTGCTGAAGCGGGGCAGA` is reported as 17700 a.u.
With `CCAAAGCAGATTTGTCACCTGGAATAGAGTTTTTGT` the fluorescence intensity was 3040 a.u.
For `CGCGGCTCTTGGCAGCACGAGGTGGTTTCACTGCAG`, the fluorescence intensity was 13600 a.u.
The fluorescence intensity of `AAAGAGACACAAAACTACGTGGGACAAGCTTGGGGT` is reported as 6110 a.u.
With `TCTGACCCAGAATGGATACGTCCATACCGTAAGGAC` the fluorescence intensity was 3780 a.u.
`GAAGGTTTGATCCATCACGTGCCAGATTTTATACCG` gave a fluorescence intensity of 17000 a.u.
`AGACTGTATTTTTGTCACCTGTCGCGGCAACTTACT` has a fluorescence intensity of 4330 a.u.
`TGCGCAACAACTTGCTGTGTGGGTGTATGTCTAGAA` has a fluorescence intensity of 5640 a.u.
`GTCTTGTCTCATTTTCACGTGACATTCCCCACTTCA` has a fluorescence intensity of 11600 a.u.
With `AAAGCGGTAATTTGTCGCGTGGGTGCAGATATCTAT` the fluorescence intensity was 9820 a.u.
With `CGTCCTAGTGATTGTCACCTCACTTCCATGAGGAAG` the fluorescence intensity was 4730 a.u.
With `CATCATGCAGGTCCACACGTGATGGGAAGGGCAACG` the fluorescence intensity was 16800 a.u.

Study 3 — technique: protein-binding microarray; molecule type: double-stranded DNA, one strand shown; matrix: in vitro; concentration: not given; direction: higher = stronger binding
Target: Protein max, full length (MAX, Homo sapiens, UniProt P61244-2, residues 1-151)
Setting: k-mer, scored over probes, only values ≥0.25
With `ACGCGAGC` the E-score was 0.257.
For `AACACGTG`, the E-score was 0.498.
`ATGTGTTA` has an E-score of 0.337.
For `ACCGCCTG`, the E-score was 0.292.
With `ACGCGCAT` the E-score was 0.372.
`CCGCGCGG` gave an E-score of 0.272.
The E-score of `AGCTCATG` is reported as 0.301.
The E-score of `TGCGCGCA` is reported as 0.299.
For `CACATGTA`, the E-score was 0.476.
With `GGTGGGTA` the E-score was 0.283.
`CCACCCCC` has an E-score of 0.281.
`CGTGCCGA` has an E-score of 0.313.
With `GGTGGCCA` the E-score was 0.278.

Study 4 — technique: protein-binding microarray; molecule type: double-stranded DNA, one strand shown; matrix: in vitro; concentration: 2540 nM top; setting: 60-bp whole probe; added: salmon DNA 0.4 mg/ml; reference: random background probes; direction: higher = stronger binding; constant ends, left off below: GCCTAGCAC … GTCTTGATTCGCTTGACGCTGCTG
Target: Interferon regulatory factor 3, full length, phosphomimetic (IRF3, Homo sapiens, UniProt Q14653, residues 1-427, S386D/S396D/S398D/S402D/T404D/S405D)
Construct (chain): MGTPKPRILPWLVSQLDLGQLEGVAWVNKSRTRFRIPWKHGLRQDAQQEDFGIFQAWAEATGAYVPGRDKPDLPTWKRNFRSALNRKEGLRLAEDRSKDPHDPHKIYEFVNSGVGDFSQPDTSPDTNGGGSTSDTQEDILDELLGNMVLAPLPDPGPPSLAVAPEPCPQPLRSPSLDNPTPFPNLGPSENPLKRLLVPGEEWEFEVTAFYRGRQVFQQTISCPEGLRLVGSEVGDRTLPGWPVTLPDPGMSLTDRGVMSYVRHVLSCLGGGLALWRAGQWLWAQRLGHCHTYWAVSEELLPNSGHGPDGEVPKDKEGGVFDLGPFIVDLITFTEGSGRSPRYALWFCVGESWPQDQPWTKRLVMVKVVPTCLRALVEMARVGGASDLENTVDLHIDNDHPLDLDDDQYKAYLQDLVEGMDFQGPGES
Under “fitted relative affinity”, `CTTTCTTTATGTACTCTCTCCGTGCTA` is recorded as 5.16 z-score.
For `GACGGTCTCCTTTACCTGACGTGCTAG`, “fitted relative affinity” read 2.24 z-score.
`GACGATTTCGGGACTGGAGAGGTGCTA` — result for “fitted relative affinity”: 1.69 z-score.
`GCTGTTCTCAGACTGGGTGCGTGCTAG` — result for “fitted relative affinity”: 2.24 z-score.
Under “fitted relative affinity”, `TCAGGTTTCGGTTCCGGTTAGTGCTAG` is recorded as 11.1 z-score.
`GACGAGTTCGGGACTGGAGACGTGCTA` — result for “fitted relative affinity”: -0.406 z-score.
For `TCAGGACTGGGGTTTCGGTTAGTGCTA`, “fitted relative affinity” read 2.55 z-score.
For `TTTGTTTCCATTTTCTGAATGTGCTAG`, “fitted relative affinity” read 9.29 z-score.
For `GACGCTATCGGTATCGGGACGTGCTAG`, “fitted relative affinity” read 1.93 z-score.
`GACTATCTCAGACTGGAGACGTGCTAG` — result for “fitted relative affinity”: 0.411 z-score.
`CTGGTCCTCCTGACTGGGGTGGTGCTA`: “fitted relative affinity” -0.117 z-score.
For `TTAGGACTGGTGTTTCGGTTAGTGCTA`, “fitted relative affinity” read 2.22 z-score.
`GACGCTTCCCTTTTCCTGACGTGCTAG`: “fitted relative affinity” 3.52 z-score.
Under “fitted relative affinity”, `TCCCAATTCTCTTTTCACTTGTGCTAG` is recorded as 2.33 z-score.
`AGTGGAGTTCATTGTCATTTGTGCTAG`: “fitted relative affinity” -0.334 z-score.
Under “fitted relative affinity”, `TTAGGACTGCATTTCCTTTAGTGCTAG` is recorded as 0.61 z-score.

Study 5 — technique: RNA Bind-n-Seq; molecule type: RNA; matrix: in vitro; concentration: 365 nM; reference: no-protein control; direction: higher = stronger binding
Target: RNA binding protein fox-1 homolog 2, RRM domain, GST-SBP tag (RBFOX2, Homo sapiens, UniProt O43251-10, residues 100-194)
Setting: natural RNA segment, single round, ends assumed
Constant ends, left off below: GGGAGUUCUACAGUCCGACGAUC … UGGAAUUCUCGGGUGCCAA
Construct (chain): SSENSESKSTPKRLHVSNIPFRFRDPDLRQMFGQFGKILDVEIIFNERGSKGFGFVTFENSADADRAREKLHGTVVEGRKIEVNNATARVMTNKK
`CCUCUGUGUAGGGCUGUUUUCCAGGAAUUAGGAAGAAAACCCAAAGAAAAUAUUGCACAAAGGUUUCCCUCAGGAAACCUAGUGCAGAUAGCCAUGGAAGCAUAGCCACU`: “RBNS enrichment (R)” 0.286.
Under “RBNS enrichment (R)”, `GUUUUUCUUUUGCCAUACAAAGUUAUUAUCAUAUGAUUCUAUUUGGCUUCCUUCAAACUAUUGUUUGUAUACUAUAUUUGCUUGGCAAGGGGAGGUAGCUUUCUGUAUAA` is recorded as 0.547.
For `GAUGGCUGCCAGUUUCUGCUGAUACACAGGUAGGAUGGGACCCUUCAUGAAUAUCUGACUUUAAUAAGUUGGUAAGGAUAUAUUUUUUUGUCUAUGUUCUGUUUCAACUU`, “RBNS enrichment (R)” read 0.351.
Under “RBNS enrichment (R)”, `GGUGGCACCACCAUGGUUACAGCGGAUGCCCCGAGACUCUGCUUGGUAAACGUGGCAGAGCAGAAUGGGAGGCUGGACCCUGAGGAAGGGCCCCUCUCCUGGCAUCUGUC` is recorded as 0.46.
Under “RBNS enrichment (R)”, `UGUACUAGCAUCCGCAUUCCUCCCUCAGGGCAUGGUCUCAUCUCUGCAUCAGGAAUUUACCAGGAGAUGGAAAAGAACAGAAAAAGCCCUGAGCCUGUGUGUGUUCCUUC` is recorded as 0.877.
`CAGUCACCAUGUUGUCAAACCUUAAUAAUGCACCUCAUGUAUUAGUCACAAUAAAAAUCAGAACUCAUUAGGCUUCCCUUCUCAUUCAGAAUGCUUCAGAAAACAAUUCC` — result for “RBNS enrichment (R)”: 0.362.
`GAAGAUGGGUGCAUGAGAAUCUUGGCUCAGCCAAAGCCCCUUCAUGGAAAUACAAGCCAUAAAAUUCAAAAGGUGUCAAAAGACCUUGGCUUGUUUGGGGGUUUGUUCCC`: “RBNS enrichment (R)” 5.67.
For `AACCUGGUCGAUAGCUCGAGAAAGAAUUUUUUCCAAGGAAAUGUCUCGGAUAUGGGUACUGUAUUUGAAAGCUGUUAGCUUUGUCAACACGCAUUGUCCUUGUCAUUUGG`, “RBNS enrichment (R)” read 0.38.
For `CCAUUUGCUAGUUCUCAUGUGAUAUGCAACGGUCCAAGAUGGUUAUCUGAAUCAGGAUAGAACACCCAUUAGUCAUUUUCCCCCCACAAAGCAGCAUUCUGCCUGAAGCA`, “RBNS enrichment (R)” read 18.9.
`CCAUCUUUAGUUAAUGGAAUUUUAAUUUAAAUGAAGCUUUGCUAAUUUUAAGUGGUAAGCAUUUUGCAUUAAAAUAUUCCUAUAAUAUUUUGUCGCUGUUCUUUGUCCUU` — result for “RBNS enrichment (R)”: 0.457.
`CCCUGACUCCCUCAUGGUGCCUCGGAGAGUGGGGAGCAUAUUGGGCUGGGGUAAGCACUAGACCCAAGUAGACUGGACACAAAGGGCUCGCCCAGGGCCCUGGCGCCACC`: “RBNS enrichment (R)” 0.519.
`AAGAAAUGGAAUUUAUUUAAAUACUGUUUAAGCUCAUGCUUGACACUAGUGGGACAGCGGUUUUCAAUGGUGCUGAUCAGUCGACUCGUCAACUCCUGUCAUUUUUAGAA`: “RBNS enrichment (R)” 0.452.
